Published values from different studies.
Several values in a cell are separate wells, animals, samples, runs or records. Numbers after ± are the reported error.
AHR: Aryl hydrocarbon receptor (AHR, Delphinapterus leucas, UniProt Q95LD9)
Chain of UniProt Q95LD9 (whole entry, looked up): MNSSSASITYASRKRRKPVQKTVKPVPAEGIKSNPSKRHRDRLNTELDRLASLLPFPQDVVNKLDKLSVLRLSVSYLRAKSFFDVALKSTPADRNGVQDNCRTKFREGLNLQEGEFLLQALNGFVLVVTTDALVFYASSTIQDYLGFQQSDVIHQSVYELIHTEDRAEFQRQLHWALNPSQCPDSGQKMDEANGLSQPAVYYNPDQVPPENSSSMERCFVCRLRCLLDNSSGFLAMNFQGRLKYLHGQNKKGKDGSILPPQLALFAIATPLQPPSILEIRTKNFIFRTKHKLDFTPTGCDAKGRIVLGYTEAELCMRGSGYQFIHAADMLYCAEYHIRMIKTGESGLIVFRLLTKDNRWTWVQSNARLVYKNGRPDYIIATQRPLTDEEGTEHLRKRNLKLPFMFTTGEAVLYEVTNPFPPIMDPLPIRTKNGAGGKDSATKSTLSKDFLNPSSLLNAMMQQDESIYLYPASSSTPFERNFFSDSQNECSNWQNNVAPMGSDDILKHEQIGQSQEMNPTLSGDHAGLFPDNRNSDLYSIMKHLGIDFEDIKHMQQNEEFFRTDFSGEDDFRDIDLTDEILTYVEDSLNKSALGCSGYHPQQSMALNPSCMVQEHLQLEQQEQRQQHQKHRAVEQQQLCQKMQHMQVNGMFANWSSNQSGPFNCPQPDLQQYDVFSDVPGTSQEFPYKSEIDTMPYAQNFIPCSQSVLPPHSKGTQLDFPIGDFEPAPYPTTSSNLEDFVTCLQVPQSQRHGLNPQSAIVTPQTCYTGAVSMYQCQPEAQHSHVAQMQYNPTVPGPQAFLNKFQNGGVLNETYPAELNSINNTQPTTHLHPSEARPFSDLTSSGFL
CYP2C19: Cytochrome P450 2C19 (CYP2C19, Homo sapiens, UniProt P33261)
Chain of UniProt P33261 (whole entry, looked up): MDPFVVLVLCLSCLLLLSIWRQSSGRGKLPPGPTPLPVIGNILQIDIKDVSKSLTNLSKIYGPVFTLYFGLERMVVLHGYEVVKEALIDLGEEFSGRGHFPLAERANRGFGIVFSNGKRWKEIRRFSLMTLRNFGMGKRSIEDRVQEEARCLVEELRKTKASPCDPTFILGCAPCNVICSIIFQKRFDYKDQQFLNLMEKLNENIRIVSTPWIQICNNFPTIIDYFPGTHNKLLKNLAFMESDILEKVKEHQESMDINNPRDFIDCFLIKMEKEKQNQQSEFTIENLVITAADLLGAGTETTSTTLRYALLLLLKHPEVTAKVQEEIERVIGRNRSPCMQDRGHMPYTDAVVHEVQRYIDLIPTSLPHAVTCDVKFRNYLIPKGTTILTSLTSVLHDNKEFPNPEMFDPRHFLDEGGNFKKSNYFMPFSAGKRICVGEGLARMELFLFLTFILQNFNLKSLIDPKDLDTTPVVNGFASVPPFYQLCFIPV
CYP2C9: Cytochrome P450 2C9 (CYP2C9, Homo sapiens, UniProt P11712)
Chain of UniProt P08183 (whole entry, looked up): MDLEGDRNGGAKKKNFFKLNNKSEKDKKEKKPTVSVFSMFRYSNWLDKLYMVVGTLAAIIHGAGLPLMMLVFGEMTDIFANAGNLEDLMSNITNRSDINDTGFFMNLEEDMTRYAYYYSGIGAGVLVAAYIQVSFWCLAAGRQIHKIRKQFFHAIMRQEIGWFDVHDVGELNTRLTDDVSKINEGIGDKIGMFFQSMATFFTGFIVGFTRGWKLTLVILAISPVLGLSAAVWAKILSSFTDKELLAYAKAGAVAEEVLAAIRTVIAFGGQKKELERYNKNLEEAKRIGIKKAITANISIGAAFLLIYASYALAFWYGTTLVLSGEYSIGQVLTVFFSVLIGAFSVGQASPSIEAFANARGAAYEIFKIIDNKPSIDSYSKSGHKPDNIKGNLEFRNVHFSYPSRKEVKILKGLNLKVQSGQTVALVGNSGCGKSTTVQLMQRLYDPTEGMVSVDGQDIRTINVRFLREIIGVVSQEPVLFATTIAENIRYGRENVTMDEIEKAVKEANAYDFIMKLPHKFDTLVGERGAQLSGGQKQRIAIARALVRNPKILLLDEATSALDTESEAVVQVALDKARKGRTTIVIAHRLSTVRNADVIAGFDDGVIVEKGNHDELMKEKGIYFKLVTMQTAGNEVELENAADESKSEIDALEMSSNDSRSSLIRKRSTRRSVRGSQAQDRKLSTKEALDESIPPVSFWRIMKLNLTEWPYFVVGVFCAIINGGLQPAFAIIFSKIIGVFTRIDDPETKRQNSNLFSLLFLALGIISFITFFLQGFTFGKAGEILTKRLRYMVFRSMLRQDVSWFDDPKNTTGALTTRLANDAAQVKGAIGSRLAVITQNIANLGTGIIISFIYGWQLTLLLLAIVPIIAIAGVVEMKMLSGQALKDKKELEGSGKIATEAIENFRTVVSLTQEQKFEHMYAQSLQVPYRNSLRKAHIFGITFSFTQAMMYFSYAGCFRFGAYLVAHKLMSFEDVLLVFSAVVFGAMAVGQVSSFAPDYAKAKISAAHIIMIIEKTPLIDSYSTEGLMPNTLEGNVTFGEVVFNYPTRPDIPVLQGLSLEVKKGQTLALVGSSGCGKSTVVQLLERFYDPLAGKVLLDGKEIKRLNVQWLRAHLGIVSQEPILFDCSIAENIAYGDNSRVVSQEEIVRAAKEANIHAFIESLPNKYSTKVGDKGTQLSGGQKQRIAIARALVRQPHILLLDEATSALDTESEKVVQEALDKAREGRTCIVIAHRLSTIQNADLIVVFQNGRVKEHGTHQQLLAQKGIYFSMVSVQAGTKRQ
Chain of UniProt P11712 (whole entry, looked up): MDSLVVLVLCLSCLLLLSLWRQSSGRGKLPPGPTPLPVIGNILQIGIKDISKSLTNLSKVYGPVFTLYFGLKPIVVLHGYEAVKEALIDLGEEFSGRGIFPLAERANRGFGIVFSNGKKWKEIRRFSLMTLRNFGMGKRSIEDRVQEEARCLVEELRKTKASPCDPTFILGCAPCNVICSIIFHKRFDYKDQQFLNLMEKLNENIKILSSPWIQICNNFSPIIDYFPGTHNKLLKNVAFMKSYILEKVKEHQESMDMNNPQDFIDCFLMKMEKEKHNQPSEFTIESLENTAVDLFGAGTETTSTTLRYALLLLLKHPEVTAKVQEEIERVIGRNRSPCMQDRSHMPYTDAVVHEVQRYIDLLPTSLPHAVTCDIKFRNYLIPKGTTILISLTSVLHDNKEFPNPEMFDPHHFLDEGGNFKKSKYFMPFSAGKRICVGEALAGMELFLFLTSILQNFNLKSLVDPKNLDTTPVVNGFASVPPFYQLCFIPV
Chain of UniProt Q9NPD5 (whole entry, looked up): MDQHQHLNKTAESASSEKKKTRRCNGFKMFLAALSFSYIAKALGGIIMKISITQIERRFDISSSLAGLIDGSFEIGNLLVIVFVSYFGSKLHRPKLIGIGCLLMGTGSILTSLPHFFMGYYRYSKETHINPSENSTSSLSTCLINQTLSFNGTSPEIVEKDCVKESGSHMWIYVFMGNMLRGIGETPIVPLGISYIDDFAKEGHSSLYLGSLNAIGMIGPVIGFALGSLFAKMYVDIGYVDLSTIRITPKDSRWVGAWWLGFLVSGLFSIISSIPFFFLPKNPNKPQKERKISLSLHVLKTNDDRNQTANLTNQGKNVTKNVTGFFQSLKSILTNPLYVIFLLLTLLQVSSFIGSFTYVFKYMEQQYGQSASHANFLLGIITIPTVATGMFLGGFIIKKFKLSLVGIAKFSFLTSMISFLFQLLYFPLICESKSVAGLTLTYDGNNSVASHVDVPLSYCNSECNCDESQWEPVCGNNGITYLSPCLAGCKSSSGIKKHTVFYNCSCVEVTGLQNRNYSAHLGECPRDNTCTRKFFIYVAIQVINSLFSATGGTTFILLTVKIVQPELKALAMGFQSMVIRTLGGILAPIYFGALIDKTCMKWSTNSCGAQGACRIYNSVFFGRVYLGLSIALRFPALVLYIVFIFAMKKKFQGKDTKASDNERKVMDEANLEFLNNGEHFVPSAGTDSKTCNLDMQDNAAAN

| SMILES | tested on | assay | system | setting | quantity | result |
| --- | --- | --- | --- | --- | --- | --- |
| COc1ccc2c3c1O[C@H]1C[C@@H](OC(=O)CCCCCCCCC(=O)O[C@H]4C=C[C@@]56CCN(C)Cc7ccc(OC)c(c75)O[C@H]6C4)C=C[C@@]31CCN(C)C2 | ABCB1 (Homo sapiens, UniProt P08183) | rhodamine efflux, inhibitor, rhodamine accumulation | MCF7/DX1 |  | IC50 | ~800 nM and 800 nM |
| Clc1ccc(-c2ccc(Cl)c(Cl)c2Cl)cc1Cl | AHR | binding, competitor |  | in vitro expressed receptor, with: [3H]TCDD | IC50 | 3550 nM |
| O=S(=O)(O)C(F)(F)C(F)(F)C(F)(F)C(F)(F)F | CYP2C19 | enzyme activity, inhibitor |  | Supersomes, with: 7-BFC substrate | IC50 | > 100000 nM |
| CC1=CC(=O)c2ccccc2C1=O | CYP panel, human recombinant | enzyme activity, inhibitor |  | 10 min, pH 7.4, with: fluorogenic substrates | IC50 | 2360 to 9770 nM |
| O=C(O)C(F)(F)C(F)(F)C(F)(F)C(F)(F)C(F)(F)F | CYP2C19 | enzyme activity, inhibitor |  | Supersomes, with: 7-BFC substrate | IC50 | > 100000 nM |
| N#Cc1ccc(C(O)c2ccc(C#N)cc2)cc1 | CYP2C19 | inhibitor |  |  | IC50 | 19500 nM |
| CN[C@@](C)(C[18F])C(=O)O |  |  | SCID mouse SK-OV-3 xenograft, heart | 30 min, post injection | tissue uptake | 2.4 ± 0.6 %ID/g |
| N#Cc1ccc(N2N=C3c4ccc(C(=O)N5CCC(O)CC5)nc4CC[C@@H]3[C@@H]2C2CCCC2)cc1Cl | SLCO1B3 (Homo sapiens, UniProt Q9NPD5) | transporter uptake, inhibitor |  |  | IC50 | 21300 nM |
| Clc1ccc(-c2ccc(Cl)c(Cl)c2)cc1Cl | AHR | binding, competitor |  | in vitro expressed receptor, with: [3H]TCDD | IC50 | 35.5 nM |
| CC(=O)CC(c1ccc(O)cc1)c1c(O)c2ccccc2oc1=O (centres unmarked) | CYP2C9 | enzyme activity, inhibitor, luciferase |  |  | IC50 | 9300 nM |
| Clc1ccc(-c2ccc(Cl)c(Cl)c2Cl)c(Cl)c1Cl | AHR | binding, competitor |  | in vitro expressed receptor, with: [3H]TCDD | IC50 | 2240 nM |
| CC(=O)C(O)C(c1ccccc1)c1c(O)c2ccccc2oc1=O (centres unmarked) | CYP2C9 | enzyme activity, inhibitor, luciferase |  |  | IC50 | 1600 nM |
| C[C@@H]1CC[C@]2(C(=O)O)CC[C@]3(C)C(=CC[C@@H]4[C@@]5(C)CC[C@H](O)[C@@](C)(CO)[C@@H]5CC[C@]43C)[C@@H]2[C@]1(C)O | CYP3A4/5 | enzyme activity, inhibitor, probe cocktail incubation | pooled human liver microsomes | 20 min, with: midazolam 1.535 µM and testosterone 17.34 µM | IC50 | > 50000 nM |
| Clc1ccc(-c2cc(Cl)c(Cl)c(Cl)c2)cc1 | AHR | binding, competitor |  | in vitro expressed receptor, with: [3H]TCDD | IC50 | 89.1 nM |

Some of these lines once more:
| SMILES | tested on | assay | system | setting | quantity | result |
| --- | --- | --- | --- | --- | --- | --- |
| C[C@@H]1CC[C@]2(C(=O)O)CC[C@]3(C)C(=CC[C@@H]4[C@@]5(C)CC[C@H](O)[C@@](C)(CO)[C@@H]5CC[C@]43C)[C@@H]2[C@]1(C)O | CYP3A4/5 | enzyme activity, inhibitor, probe cocktail incubation | pooled human liver microsomes | 20 min, with: midazolam 1.535 µM and testosterone 17.34 µM | IC50 | > 50000 nM |
